Experimental data collected from several papers.
Each line is one published result; not all experiments were run side by side.

C=C1NC(=O)C2C[S+]([O-])CC3NC(=O)C(CSC(C)C(NC(=S)C(Cc4cnc[nH]4)NC(=O)c4csc(C(C)NC(C)=O)n4)C(=O)N[C@H](CC(C)C(=O)NC(=O)CC(C(=O)O)NC(=O)C(C)NC3=O)C(=O)N2)NC(=O)[C@@H]2CCCN2C(=O)[C@@H](CC(C)C)NC1=O (stereo partly shown) has an MIC of over 32 µg/mL (Enterobacter aerogenes; ATCC 13048).
CC[C@H](C)[C@@H]1NC(=O)[C@H](CO)NC(=O)C(C)(CCCCN)NC(=O)[C@@H]2CSSC[C@@H](C(=O)N[C@@H](Cc3ccc(O)cc3)C(N)=O)NC(=O)[C@H](CCCCN)NC(=O)[C@@H]3CSSC[C@H](NC(=O)[C@H](CCCNC(=N)N)NC(=O)C(C)(CC(C)C)NC(=O)[C@H](CC(=O)O)NC(=O)[C@H](CC(=O)O)NC(=O)[C@H](CCC(=O)O)NC(=O)[C@H](CC(N)=O)NC(=O)[C@H](Cc4c[nH]c5ccccc45)NC(=O)[C@@H]4CCCN4C(=O)CNC(=O)[C@H](CC(N)=O)NC(=O)[C@@H](NC(=O)CNC(=O)[C@H](Cc4ccccc4)NC(=O)CN)CSSC[C@H](NC(=O)[C@H](Cc4ccc(O)cc4)NC(=O)CNC(=O)CNC(=O)[C@H](CCCCN)NC(=O)[C@H](Cc4ccc(O)cc4)NC(=O)CNC(=O)[C@H](CCCCN)NC1=O)C(=O)N[C@@H](C)C(=O)N[C@@H](CCCCN)C(=O)NCC(=O)NCC(=O)N[C@@H](Cc1ccccc1)C(=O)N[C@@H](C(C)C)C(=O)N3)C(=O)N[C@@H](Cc1c[nH]cn1)C(=O)NC(C)(C)C(=O)N[C@@H](Cc1c[nH]cn1)C(=O)N2 (stereo partly shown) gave an MIC of 0.5 µM (Streptococcus pneumoniae; broth microdilution; 19F; 18 h).
CC[C@H](C)[C@H](NC(=O)[C@H](CCCNC(=N)N)NC(=O)[C@H](CO)NC(=O)[C@H](Cc1ccc(O)cc1)NC(=O)[C@@H](NC(=O)[C@@H](NC(=O)[C@H](C)NC(=O)CNC(=O)[C@H](CCCCN)NC(=O)[C@H](CCCCN)NC(=O)CCNC(=O)CCCCCNC(=O)[C@H](CCCNC(=N)N)NC(=O)CCCCCNC(=O)[C@H](CCCNC(=N)N)NC(=O)[C@H](CCCNC(=N)N)NC(=O)CCCCCNC(=O)[C@H](CCCNC(=N)N)NC(=O)[C@H](CCCNC(=N)N)NC(=O)CCCCCNC(=O)[C@H](CCCNC(=N)N)NC(=O)[C@H](CCCNC(=N)N)NC(=O)CCCCCNC(=O)[C@@H](N)CCCNC(=N)N)C(C)C)[C@@H](C)O)C(=O)N[C@@H](CO)C(=O)NCC(=O)N[C@@H](CCC(N)=O)C(=O)N[C@@H](Cc1ccc(O)cc1)C(=O)N[C@@H](CCCCN)C(=O)O has an MIC of over 192 µM (Escherichia coli; broth microdilution; ATCC 25922, Mueller-Hinton broth; with: MgCl2 20 mM).
The MIC of CC[C@H](C)[C@H](NC(=O)[C@H](CCCCN)NC(=O)[C@H](CCCCN)NC(=O)[C@H](Cc1ccccc1)NC(=O)[C@H](Cc1ccccc1)NC(=O)[C@H](CCCCN)NC(=O)[C@H](CCCCN)NC(=O)[C@H](Cc1ccccc1)NC(=O)[C@H](CCCNC(=N)N)NC(=O)[C@@H](N)CCCCN)C(=O)N[C@@H](CCCCN)C(=O)N[C@@H](CCCCN)C(=O)N[C@@H](CO)C(=O)N[C@H](C(=O)N[C@@H](CCCCN)C(=O)N[C@@H](CCCCN)C(=O)N[C@@H](CCCNC(=N)N)C(=O)N[C@H](C(=O)N[C@@H](CCCCN)C(=O)N[C@@H](CCCCN)C(=O)N[C@@H](CC(C)C)C(=O)N[C@@H](Cc1ccccc1)C(=O)N[C@@H](CCCCN)C(=O)N[C@@H](CCCCN)C(=O)N1CCC[C@H]1C(=O)N[C@@H](CCCNC(=N)N)C(=O)N[C@H](C(=O)N[C@H](C(=O)N1CCC[C@H]1C(=O)N[C@H](C(=O)N[C@@H](CO)C(=O)N[C@H](C(=O)N1CCC[C@H]1C(=O)N[C@@H](Cc1ccccc1)C(=O)O)[C@@H](C)CC)[C@@H](C)CC)[C@@H](C)CC)C(C)C)C(C)C)C(C)C is reported as 4 µg/mL (Pseudomonas aeruginosa; broth microdilution; P4 clinical isolate; 20 h).
The MIC of CCCCCCCCCCCCCC(=O)N[C@H](CCN)C(=O)N[C@@H]1C(=O)N[C@@H](CCN)C(=O)N[C@@H](CC(C)C)C(=O)N[C@@H](CCN)C(=O)N[C@H](Cc2ccccc2)C(=O)N[C@@H](CC(C)C)C(=O)N[C@@H](CCN)C(=O)N[C@H](CCN)C(=O)N[C@@H](C(C)C)C(=O)N[C@@H](CC(=O)O)C(=O)O[C@@H]1C is reported as 8 µg/mL (Proteus mirabilis; intrinsically colistin-resistant).
For [O-][N+]1=C(c2ccsc2)C2=NCCCN2c2ccccc21, the MIC was 2 to 4 µg/mL (Clostridioides difficile).
For OC(Cn1cncn1)(Cn1cncn1)c1ccc(F)cc1F, the MIC was 64 µg/mL (Saccharomyces cerevisiae; S288c wild type).
For CC(C)C[C@H](NC(=O)[C@@H](NC(=O)[C@H](CCCNC(=N)N)NC(=O)[C@H](CCC(N)=O)NC(=O)[C@H](Cc1ccccc1)NC(=O)[C@H](Cc1ccc(O)cc1)NC(=O)[C@H](CC(N)=O)NC(=O)[C@H](Cc1c[nH]c2ccccc12)NC(=O)[C@@H](NC(=O)[C@H](CCCNC(=N)N)NC(=O)[C@H](CCCCN)NC(=O)[C@@H](N)Cc1ccccc1)C(C)C)C(C)C)C(=O)N[C@H](C(=O)N[C@@H](CCCCN)C(=O)N[C@@H](CCCCN)C(=O)N[C@@H](Cc1ccc(O)cc1)C(N)=O)C(C)C, the MIC was under 3.1 µM (Enterobacter sp.; broth dilution; KCTC 2625).
[O-][N+]1=C(Cc2ccccc2)C2=NCCCN2c2ccccc21 has an MIC of 8 to 32 µg/mL (Clostridioides difficile).
With CC1(C)S[C@@H]2[C@H](NC(=O)[C@H](NC(=O)C3=C(O)C(c4ccccc4F)NC3=O)c3ccccc3)C(=O)N2[C@H]1C(=O)O (stereo partly shown) the MIC was 50 µg/mL (Escherichia coli; broth microdilution; Keio mutant JW2142-1).
CC1COC2=C1C(=O)C(=O)c1c2ccc2c1C(OC(=O)CNC(=O)C(N)CO)CCC2(C)C (mixture of isomers) has an MIC of 63 µM (Cutibacterium acnes; GDMCC 1.243; 48 h, anaerobic).
The MIC of OB(O)c1cnn(-c2cccc(Cl)c2)c1 is reported as over 2050 µg/mL (Citrobacter freundii; bacterial growth; AmpC overproducer clinical isolate; without cefotaxime).
CC[C@H](C)[C@H](NC(=O)[C@H](Cc1c[nH]c2ccccc12)NC(=O)[C@H](Cc1ccc(O)cc1)NC(=O)[C@H](CCCCN)NC(=O)[C@H](CC(C)C)NC(=O)[C@H](CO)NC(=O)[C@@H](N)Cc1ccccc1)C(=O)N[C@@H](CCCNC(=N)N)C(=O)N[C@@H](Cc1ccc(O)cc1)C(=O)N[C@@H](CCCCN)C(=O)N[C@@H](CCCNC(=N)N)C(=O)N[C@@H](CCC(N)=O)C(=O)NCC(=O)N[C@@H](C)C(=O)N[C@@H](C)C(=O)N[C@@H](CCCNC(=N)N)C(=O)N[C@@H](Cc1ccccc1)C(N)=O has an MIC of 25 µM (Salmonella typhimurium; broth dilution; SL1344).
